Measured values gathered from unrelated publications.
A part holds a random share of what one study measured.
Chain of UniProt P23975 (whole entry, looked up): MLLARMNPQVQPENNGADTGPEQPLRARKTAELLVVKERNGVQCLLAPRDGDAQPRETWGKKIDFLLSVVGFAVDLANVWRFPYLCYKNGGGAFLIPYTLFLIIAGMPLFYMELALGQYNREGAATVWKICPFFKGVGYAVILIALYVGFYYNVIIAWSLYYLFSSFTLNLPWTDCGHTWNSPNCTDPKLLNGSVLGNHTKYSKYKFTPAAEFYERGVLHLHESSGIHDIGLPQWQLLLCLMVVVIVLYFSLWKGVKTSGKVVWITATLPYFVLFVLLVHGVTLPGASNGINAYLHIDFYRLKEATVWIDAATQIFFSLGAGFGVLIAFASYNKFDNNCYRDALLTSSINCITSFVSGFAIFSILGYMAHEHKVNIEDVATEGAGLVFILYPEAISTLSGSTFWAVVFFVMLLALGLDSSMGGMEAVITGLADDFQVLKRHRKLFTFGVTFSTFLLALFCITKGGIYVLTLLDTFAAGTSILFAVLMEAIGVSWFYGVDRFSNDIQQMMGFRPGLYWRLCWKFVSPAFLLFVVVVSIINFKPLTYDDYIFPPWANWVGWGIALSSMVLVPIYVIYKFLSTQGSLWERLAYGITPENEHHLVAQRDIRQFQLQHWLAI

Set 1 — organism: Vesicular stomatitis virus; observed: pseudovirus infection; tested at: concentration not given; setting: VSV-G control pseudotype; quantity: GFP signal
SMILES = CNCC(O)c1ccc(O)c(O)c1 (racemic); result = 108%
SMILES = O=N[O-].[Na+]; result = 106%
SMILES = Cl.N[C@@H]1C[C@H]1c1ccccc1; result = 93.5%
SMILES = CC(C)OC(=O)[C@H](C)N[P@](=O)(CO[C@H](C)Cn1cnc2c(N)ncnc21)Oc1ccccc1; result = 144%
SMILES = Cl.Nc1c2c(nc3ccccc13)CCCC2.O; result = 121%

Set 2 — cell line: mouse MPNST tumor cells; method: high-content nuclear imaging; measured: cell number; tested at: 10 µM; time: 12 h; setting: mean of 2 replicates; reference: plate mean; reading: higher = more cells; quantity: nuclei count
SMILES = CN(Cc1cccc(-c2ccccc2)c1)C(=O)Oc1ccc(-c2ccc(C(N)=O)cc2)cc1; result = -0.143 z-score
SMILES = CC(C)c1ccccc1C1SCC(=O)Nc2ccc(Cl)cc21 (centres unmarked); result = 0.716 z-score
SMILES = CCC1(c2ccc(N)cc2)CCC(=O)NC1=O (centres unmarked); result = 0.909 z-score
SMILES = O=C1Nc2ccccc2C2(CCN(CCc3ccc(C(F)(F)F)cc3)CC2)O1; result = -1.02 z-score

Mixed results
CDPK1: Calcium-dependent protein kinase 1 (CDPK1, Plasmodium falciparum, UniProt P62344)
Chain of UniProt P62344 (whole entry, looked up): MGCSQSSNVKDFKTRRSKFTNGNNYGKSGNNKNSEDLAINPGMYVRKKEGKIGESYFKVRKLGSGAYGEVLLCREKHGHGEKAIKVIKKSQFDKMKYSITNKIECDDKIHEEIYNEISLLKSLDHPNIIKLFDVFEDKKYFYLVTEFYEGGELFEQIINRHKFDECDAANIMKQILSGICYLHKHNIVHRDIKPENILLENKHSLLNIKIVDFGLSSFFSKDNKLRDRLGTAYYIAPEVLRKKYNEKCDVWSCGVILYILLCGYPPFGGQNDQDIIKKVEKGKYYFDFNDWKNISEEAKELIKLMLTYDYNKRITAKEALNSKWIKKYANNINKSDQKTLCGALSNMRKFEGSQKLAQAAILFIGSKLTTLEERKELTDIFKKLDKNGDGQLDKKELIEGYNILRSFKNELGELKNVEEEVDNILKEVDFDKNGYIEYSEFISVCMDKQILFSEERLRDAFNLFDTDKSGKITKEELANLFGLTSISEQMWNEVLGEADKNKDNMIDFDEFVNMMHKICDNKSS
pknB: Serine/threonine-protein kinase PknB (pknB, Mycobacterium tuberculosis, UniProt P9WI81)
Chain of UniProt P9WI81 (whole entry, looked up): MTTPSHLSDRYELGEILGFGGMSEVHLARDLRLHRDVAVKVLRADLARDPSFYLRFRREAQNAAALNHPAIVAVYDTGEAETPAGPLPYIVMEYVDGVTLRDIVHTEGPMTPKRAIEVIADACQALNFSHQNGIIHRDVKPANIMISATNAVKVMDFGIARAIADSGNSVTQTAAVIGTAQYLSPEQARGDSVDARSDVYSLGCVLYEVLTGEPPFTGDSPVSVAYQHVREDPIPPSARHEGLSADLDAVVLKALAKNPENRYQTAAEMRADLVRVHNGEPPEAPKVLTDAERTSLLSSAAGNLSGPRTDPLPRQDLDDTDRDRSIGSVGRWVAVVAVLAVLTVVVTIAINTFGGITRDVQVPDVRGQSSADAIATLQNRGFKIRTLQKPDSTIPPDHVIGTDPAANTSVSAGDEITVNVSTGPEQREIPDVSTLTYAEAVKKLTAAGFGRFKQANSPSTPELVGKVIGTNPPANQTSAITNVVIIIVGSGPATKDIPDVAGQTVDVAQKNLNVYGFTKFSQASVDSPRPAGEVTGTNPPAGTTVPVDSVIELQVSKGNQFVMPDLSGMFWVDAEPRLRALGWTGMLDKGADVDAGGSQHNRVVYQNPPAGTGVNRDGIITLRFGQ
Compound = Cc1noc([C@H]2C[C@@H](c3ccc(C(F)(F)F)cc3)CN(C(=O)N3CCS(=O)(=O)C3)C2)n1; target = CDPK1; assay = cell-free assay, competition with immobilised ligand; conditions = 1 µM; quantity = remaining binding; result = 82%
Compound = CC#CC(=O)N1CCC[C@H]1c1nc(-c2ccc(C(=O)Nc3ccccn3)cc2)c2c(N)nccn12; target = pknB; assay = enzyme activity, inhibitor; conditions = 1 µM; quantity = inhibition; result = 0%
Compound = Nc1c(C(=O)NCc2ccc(C(=O)NCCCC3CCCCC3)cc2)cnn1-c1ccccc1; target = CDPK1; assay = cell-free assay, competition with immobilised ligand; conditions = 0.1 µM; quantity = remaining binding; result = 86%
Compound = CS(=O)(=O)NCC[C@H](NC(=O)c1cncc2c1cnn2-c1ccc(F)cc1)c1ccnc(S(C)(=O)=O)c1; target = pknB; assay = cell-free assay, competition with immobilised ligand; conditions = 1 µM; quantity = remaining binding; result = 93%
Compound = COc1cc(-c2cn(C3CCc4c(F)cccc4N(CC(F)(F)F)C3=O)nn2)ccc1-n1cnc(C)c1 (centres unmarked); target = SLC6A2 (Homo sapiens, UniProt P23975); assay = ligand displacement; conditions = 10 µM; quantity = inhibition; result = 87.1%

Excerpt of the above (set 1):
SMILES = CC(C)OC(=O)[C@H](C)N[P@](=O)(CO[C@H](C)Cn1cnc2c(N)ncnc21)Oc1ccccc1; result = 144%
SMILES = Cl.Nc1c2c(nc3ccccc13)CCCC2.O; result = 121%
